Assay results pooled from the literature.
“And” joins repeats or separate records; there may be more than shown. ± gives the spread as reported.

Structure (SMILES)	cell line	test	system	setting	scale	measurement	value
Cc1sc2c(c1C)C(c1ccc(Cl)cc1)=N[C@@H](CC(=O)NCCCCCCCCNC(=O)COc1cccc3c1C(=O)N(C1CCC(=O)NC1=O)C3=O)c1nnc(C)n1-2 (some centres unmarked)	4T1	wound healing		concentration not given, laser irradiation		cell motility	37.8% and 34.3% and 37%
CCCCCCOC(=O)[C@]1(O)C[C@@H]2O[C@@]1(C)n1c3ccccc3c3c4c(c5c6ccccc6n2c5c31)C(=O)NC4	SK-OV-3	ATP	3D gellan gum culture	0.1 µM, 4 days	baseline: untreated	relative cell number	82.4%
Cn1cc(-c2ccc(-c3cncc(Cl)c3N3CCC4(CCNC4=O)CC3)cc2)cn1	COLO 205	gene expression, microarray, measured: SOX8 mRNA		concentration not given, 2 h	baseline: untreated cells	log2 fold change	2.42
COc1cnccc1Cn1nc(-c2ccc(CO)o2)c2ccccc21	RBE	cell viability, CellTiter-Glo				IC50	210 nM
NC(=O)NOCCCCCCCCCCCCCCCCCCCC[P+](c1ccccc1)(c1ccccc1)c1ccccc1.O=C([O-])C(F)(F)F	HCT-116	cell growth, live-cell imaging		0.05 µM, control at 90% confluence		cell confluence	91 ± 3.05%
O=C1CC[C@H](N2Cc3cc(N4CCN(CC5CCN(c6ccc([C@@H]7c8ccc(O)cc8CC[C@@H]7c7ccccc7)cc6)CC5)CC4)ccc3C2=O)C(=O)N1	T47D expressing ESR1 D538G	cell growth, CellTiter-Glo		120 h		GI50	5.7 nM
COc1ccc(NC(=S)N/N=C/c2cccc3cc4ccccc4nc23)cc1	HeLa	PI flow cytometry		IC25, 48 h		G1 phase cells	57.4 ± 0.7%
CCN(CC)CCCC(C)Nc1ccnc2cc(Cl)ccc12 (centres unmarked)	hiPSC-derived cardiomyocytes	sodium current, perforated patch clamp		5 µM	baseline: initial current	relative peak current	1.04 and 0.82 and 0.97 and 0.95 and 0.75
CCCOc1ccc(-c2ccc(C#N)cc2)cc1	BeWo	RNA sequencing		50 µM, middle dose		number of downregulated genes	37
CCN(Cc1c(F)cccc1Cl)c1ccc(CO)c(Cl)c1	RBE	cell viability, CellTiter-Glo				IC50	140 nM
COc1cnc2cccc(N3CCc4c(cc(Cn5ccnc5C)cc4-c4cn(C)nc4C(F)(F)F)C3=O)c2c1	SNU-16	cell growth, inhibitor		120 h		EC50	2170 nM
Cc1nn(-c2nc3c(F)cc(F)cc3s2)c(O)c1C(c1ccc(C(F)(F)F)cc1)c1c(C)nn(-c2nc3c(F)cc(F)cc3s2)c1O	RAW-ISG	western blot		10 µM, with: HT-DNA	baseline: DMSO	phospho-TBK1 to TBK1 ratio	0.459 and 0.826 and 0.633
Cn1c(Nc2nc3ccc(C(F)(F)F)cc3s2)nc2cc(C(=O)NCCOCCO)ccc21	SH-SY5Y	RNA-seq, measured: ITGA6 mRNA		5 µM, 5 h	baseline: untreated cells	fold change	2.11
Nc1cccc2c1C(=O)N(C1CCC(=O)NC1=O)C2=O (centres unmarked)	RPMI-8226	flow cytometry, measured: CD150		concentration not given	baseline: comparator compound alone	surface marker level	156%
NC(=O)NO	HCT-116	cell growth, live-cell imaging		10 µM, control at 90% confluence		cell confluence	89.9 ± 7.19%
CCc1ccc(NC(=O)NCCN2CCc3ccccc3C2)cc1	BV-2	measured: caspase-8		30 nM, with: high glucose	baseline: high glucose	protein level	decreased
COC(=O)[C@]12CCC(C)(C)C[C@H]1[C@H]1C(=O)C=C3[C@@]4(C)C=C(C#N)C(=O)C(C)(C)[C@@H]4CC[C@@]3(C)[C@]1(C)CC2	HepG2	phospholipidosis		24 h		representative mode point of departure	0.155 µM
C=CC1=C(C)c2cc3[n-]c(cc4nc(cc5[n-]c(cc1n2)c(C)c5C=C)C(C)=C4CCC(=O)O)c(CCC(=O)O)c3C.[Zn+2]	SH-SY5Y	RNA-seq, measured: SH3TC1 mRNA		5 µM, 5 h	baseline: untreated cells	fold change	1.72
CCn1cc(-c2cc(Cn3ccnc3)cc3c2CCN([C@H](c2cc(OC)ccn2)C2CC2)C3=O)c(C(F)(F)F)n1	TEN	cell growth		120 h		EC50	23100 nM
COc1ccc(-n2nc(C(C)=O)s/c2=N\N=C(/C)c2ccc(NC(=O)c3ccc(C)cc3)cc2)cc1	MCF7			2.5 µM		toxicity	97%
Clc1nc(NCc2ccco2)c2[nH]cnc2n1	iPSC-derived cardiomyocytes	RNA-seq, measured: chrX exon ending 63510079		unit not given	baseline: DMSO minus compound	ΔPSI	-0.206

Structure (SMILES)	cell line	test	system	setting	scale	measurement	value
Nc1ncnc2c1ncn2[C@@H]1O[C@H](CO)[C@@H](O)[C@H]1O	activated human T cells	measured: adenine		50 µM	baseline: DMSO	log2 fold change	1.7 and 0.8 and 0.7
COc1nc(NCc2cn(-c3ccc(C(=O)Nc4ccccc4)cc3)nn2)nc(OC)n1	HCT-116	annexin V-FITC/PI		IC50, 24 h		apoptotic cells Early	18.4%
CCn1c2ccc(CNCCOCCOCCOCCC(=O)NCCOc3ccc(CCc4nc5cc(-c6c(C)noc6C)ccc5n4CCN4CCOCC4)cc3F)cc2c2ccc(-c3cc(C)cs3)cc21	NCI-H1299 expressing p53 Y220C	RT-qPCR		3 µM, 24 h	baseline: DMSO	TNFRSF10A mRNA level	> 2 fold
Cn1cc(Nc2nccc(-c3ccc4c(c3)CN(C3COC3)CC[C@H]4NC(=O)c3cn(C(C)(C)C)nn3)n2)cn1	mouse splenic B cells	measured: Opioid signalling pathway		30 mg/kg, IgD-activated in vivo	baseline: vehicle, direction not given	pathway activation z-score	2.48
OCc1ccc(-c2nn(Cc3ccc(F)cc3)c3ccccc23)o1	RBE	cell viability, CellTiter-Glo				IC50	1270 nM
O=C(/C=C/C=C/C=C/C1CCCCC1)NC1=C[C@@](O)(/C=C/C=C/C=C/C(=O)NC2=C(O)CCC2=O)[C@@H]2O[C@@H]2C1=O	IGR-39	cell growth, CellTiter-Glo		78 h		GI50	13300 nM
CSc1cccc(Nc2ncc3cc(-c4c(Cl)cccc4Cl)c(=O)n(C)c3n2)c1	hiPSC-derived cardiomyocytes (iCell)	impedance (xCELLigence Cardio)		concentration not given, 2 h	baseline: control	beat amplitude	104%
CC(C)N=C(N)c1ccc2nc(-c3ccc(OCc4cccc(COc5ccc(-c6nc7ccc(C(N)=NC(C)C)cc7[nH]6)cc5)c4F)cc3)[nH]c2c1	HEK293 cells CMV-luciferase	reporter gene, CMV-luciferase counter-screen		concentration not given	baseline: DMSO	remaining activity	99 ± 27%
O=c1[nH]nc(OCCCc2ccc(Cl)cc2)c(NCc2cccnc2)c1Br	HEK-293T	RNA-seq GSEA, measured: HALLMARK_TGF_BETA_SIGNALING		concentration not given	direction not given	normalized enrichment score	1.27
CCn1cc(-c2cc(Cn3ccoc3=N)cc3c2CCN([C@@H](C)c2cc(OC)ccn2)C3=O)c(C(F)(F)F)n1	HEC59	cell growth		120 h		EC50	176 nM
CC(C)NCC(O)c1ccc(O)c(O)c1 (centres unmarked)	mouse ventricular cardiomyocytes			dose not given, 0.431 s		sarcomere length	1.72 µm
Cc1cccc(-c2[nH]c(CNc3ccccc3F)nc2-c2ccc3ncnn3c2)n1	CD8+ T cells from myeloma patient	ELISA	human	0.5 µM		TNF-alpha production	1.11% and 1.04% and 1.18% and 1.13% and 1.12%
CC/C(=N\NC(=O)C(C)Nc1ccccc1)c1ccc(O)c(C)c1O (centres unmarked)	SK-OV-3	Western blot, measured: phospho-YAP		10 µM, 1 h, 3D gellan gum culture, unit not given	baseline: total YAP	protein level	0.33 ± 0.14
NC(=O)NOCCCCCCCCCCCCCC[P+](c1ccccc1)(c1ccccc1)c1ccccc1.O=C([O-])C(F)(F)F	HCT-116	cell growth, live-cell imaging		2 µM, control at 90% confluence		cell confluence	6.39%
C[C@H](Nc1ccc2c(c1)OCCn1cc(N3C(=O)OC[C@H]3C(F)F)nc1-2)C(N)=O	IM95	growth rate inhibition, CellTiter-Glo		120 h		IC50	1180 nM
COc1cc(Cn2nc(-c3ccc(CO)o3)c3ccccc32)ccn1	RBE	cell viability, CellTiter-Glo				IC50	380 nM
Cc1cnc(NC2CCOCC2)nc1-n1cnc(C(=O)NC(CN)c2cc(F)cc(Cl)c2)c1 (centres unmarked)	Rec1	flow cytometry		1 µM, 72 h		G1 phase cells	51.2%
OCc1ccc(-c2nn(Cc3ccncc3)c3cccnc23)o1	RBE	cell viability, CellTiter-Glo				IC50	8720 nM
COc1cc2c(Oc3ccc(NC(=O)C4(C(=O)Nc5ccc(F)cc5)CC4)cc3F)ccnc2cc1OCCCN1CCOCC1	hiPSC-derived cardiomyocytes (iCell)	impedance		concentration not given, 24 h	baseline: control	cell index	78.9%
COc1ccc2c(c1)CN(C(=O)CCN1CCC(Cc3ccccc3)CC1)CC[S@@+]2[O-]	hiPSC-derived cardiomyocytes			10 µM		APD90	decreased
